# Measurements collected from several papers.
# Every numbered part comes from another study and shows a few of its results, in no order.
# Sequence of UniProt P54756 (whole entry, looked up): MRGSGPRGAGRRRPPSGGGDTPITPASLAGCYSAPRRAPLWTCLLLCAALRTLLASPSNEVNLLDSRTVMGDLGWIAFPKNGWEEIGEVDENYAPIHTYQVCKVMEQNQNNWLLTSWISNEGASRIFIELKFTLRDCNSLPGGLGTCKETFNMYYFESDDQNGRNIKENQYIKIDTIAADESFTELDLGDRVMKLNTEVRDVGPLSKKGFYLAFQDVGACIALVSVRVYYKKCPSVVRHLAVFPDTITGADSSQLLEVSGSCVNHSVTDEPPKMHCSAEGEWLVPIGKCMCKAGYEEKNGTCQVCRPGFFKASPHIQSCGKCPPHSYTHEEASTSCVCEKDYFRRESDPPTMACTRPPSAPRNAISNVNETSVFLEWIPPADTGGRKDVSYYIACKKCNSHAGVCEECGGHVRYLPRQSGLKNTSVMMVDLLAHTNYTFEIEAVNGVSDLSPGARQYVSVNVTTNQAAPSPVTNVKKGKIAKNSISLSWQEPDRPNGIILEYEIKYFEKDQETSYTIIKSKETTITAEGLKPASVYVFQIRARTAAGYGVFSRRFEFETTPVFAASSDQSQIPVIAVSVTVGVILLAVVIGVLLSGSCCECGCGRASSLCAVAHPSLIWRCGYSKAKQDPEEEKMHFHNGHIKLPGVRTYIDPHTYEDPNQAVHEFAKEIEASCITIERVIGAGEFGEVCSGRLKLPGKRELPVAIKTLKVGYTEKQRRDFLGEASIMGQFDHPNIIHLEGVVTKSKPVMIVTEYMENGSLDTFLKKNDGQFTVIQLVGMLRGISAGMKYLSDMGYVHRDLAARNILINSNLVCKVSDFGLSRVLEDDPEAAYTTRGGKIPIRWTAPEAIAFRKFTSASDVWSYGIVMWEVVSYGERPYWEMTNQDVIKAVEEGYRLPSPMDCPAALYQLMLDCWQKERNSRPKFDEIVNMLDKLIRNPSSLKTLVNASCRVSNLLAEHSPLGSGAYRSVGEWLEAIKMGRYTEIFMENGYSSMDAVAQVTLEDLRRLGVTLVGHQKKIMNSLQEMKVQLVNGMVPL
# Sequence of UniProt Q9Y4K4 (whole entry, looked up): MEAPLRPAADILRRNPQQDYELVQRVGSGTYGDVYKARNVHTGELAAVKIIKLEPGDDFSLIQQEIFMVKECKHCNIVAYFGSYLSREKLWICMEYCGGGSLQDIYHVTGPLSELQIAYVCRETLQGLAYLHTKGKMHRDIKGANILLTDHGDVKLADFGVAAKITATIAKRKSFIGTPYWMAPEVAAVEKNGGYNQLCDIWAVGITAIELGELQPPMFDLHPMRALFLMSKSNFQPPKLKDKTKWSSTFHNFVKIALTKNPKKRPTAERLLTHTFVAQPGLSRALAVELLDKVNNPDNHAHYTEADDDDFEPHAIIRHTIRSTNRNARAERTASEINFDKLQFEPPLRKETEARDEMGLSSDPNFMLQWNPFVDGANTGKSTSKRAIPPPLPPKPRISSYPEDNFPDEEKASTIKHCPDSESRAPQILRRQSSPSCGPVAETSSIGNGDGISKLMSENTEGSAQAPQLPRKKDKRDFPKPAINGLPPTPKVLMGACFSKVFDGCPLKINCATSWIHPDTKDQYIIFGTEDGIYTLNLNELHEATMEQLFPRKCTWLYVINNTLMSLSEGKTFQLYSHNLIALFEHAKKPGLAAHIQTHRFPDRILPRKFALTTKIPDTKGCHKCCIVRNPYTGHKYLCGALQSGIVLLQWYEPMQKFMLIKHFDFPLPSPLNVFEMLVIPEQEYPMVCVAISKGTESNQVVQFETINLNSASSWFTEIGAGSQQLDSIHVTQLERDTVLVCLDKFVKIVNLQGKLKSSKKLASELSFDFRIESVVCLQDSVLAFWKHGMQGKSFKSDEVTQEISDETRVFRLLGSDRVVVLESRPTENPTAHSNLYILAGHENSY
# Sequence of UniProt Q07912 (whole entry, looked up): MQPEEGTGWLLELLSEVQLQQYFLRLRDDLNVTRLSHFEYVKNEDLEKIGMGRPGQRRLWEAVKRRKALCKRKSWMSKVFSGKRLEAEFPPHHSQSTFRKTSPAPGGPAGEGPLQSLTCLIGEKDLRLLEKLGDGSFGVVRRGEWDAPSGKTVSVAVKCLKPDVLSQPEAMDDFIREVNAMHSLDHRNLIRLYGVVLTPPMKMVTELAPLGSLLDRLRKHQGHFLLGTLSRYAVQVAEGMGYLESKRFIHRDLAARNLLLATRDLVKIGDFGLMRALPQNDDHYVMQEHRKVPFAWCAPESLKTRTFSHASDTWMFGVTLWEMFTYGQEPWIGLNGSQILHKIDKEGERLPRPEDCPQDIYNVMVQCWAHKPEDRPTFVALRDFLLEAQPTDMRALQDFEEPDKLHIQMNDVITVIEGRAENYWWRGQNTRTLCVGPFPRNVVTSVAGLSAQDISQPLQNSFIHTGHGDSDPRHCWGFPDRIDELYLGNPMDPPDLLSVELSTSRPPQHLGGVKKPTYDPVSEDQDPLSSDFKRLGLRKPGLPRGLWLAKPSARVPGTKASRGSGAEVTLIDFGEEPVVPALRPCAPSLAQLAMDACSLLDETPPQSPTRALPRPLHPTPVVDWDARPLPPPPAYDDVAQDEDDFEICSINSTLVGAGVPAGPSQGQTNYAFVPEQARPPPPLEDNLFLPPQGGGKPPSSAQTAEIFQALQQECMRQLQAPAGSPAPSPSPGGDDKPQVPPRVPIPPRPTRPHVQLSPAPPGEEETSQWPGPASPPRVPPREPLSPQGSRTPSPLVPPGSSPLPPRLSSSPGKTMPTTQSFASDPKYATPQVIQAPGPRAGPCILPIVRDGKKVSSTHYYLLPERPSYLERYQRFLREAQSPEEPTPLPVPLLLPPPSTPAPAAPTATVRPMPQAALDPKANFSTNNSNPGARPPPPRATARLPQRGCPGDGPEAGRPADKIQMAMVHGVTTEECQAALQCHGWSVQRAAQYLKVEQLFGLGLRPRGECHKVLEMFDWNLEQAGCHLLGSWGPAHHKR

# Study 1
# Target: RING finger protein unkempt homolog, zinc fingers 1-6, SBP tag (UNK, Homo sapiens, UniProt Q9C0B0, residues 30-357)
# Sequence of UniProt Q9C0B0 (30-357, looked up): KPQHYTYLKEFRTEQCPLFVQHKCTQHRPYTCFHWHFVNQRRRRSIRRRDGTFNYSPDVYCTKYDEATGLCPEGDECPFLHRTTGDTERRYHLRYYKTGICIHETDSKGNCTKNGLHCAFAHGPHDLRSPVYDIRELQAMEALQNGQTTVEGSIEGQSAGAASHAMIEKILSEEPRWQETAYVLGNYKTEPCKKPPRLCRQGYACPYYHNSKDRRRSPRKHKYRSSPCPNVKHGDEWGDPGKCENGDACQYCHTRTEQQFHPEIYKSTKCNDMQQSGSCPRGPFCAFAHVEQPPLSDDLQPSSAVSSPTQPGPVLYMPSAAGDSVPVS
# Method: RNA Bind-n-Seq
# Form: RNA
# Matrix: in vitro
# Concentration: 100 nM
# Notes: RNA with constant flanks, vertebrate orthologous sites, ends assumed
# Reference: input RNA pool
# Direction: higher = stronger binding
# All sequences stand within: GGGAGUUCUACAGUCCGACGAUC … CAACAGAGGAUUGAGCAUCA
Strand,bound/input enrichment
AUAGAAAAGCCACCUUUUAUUCCCAUCCCUCCCAAUCUCCUCCCCUCAAUUCCAAAUACUCUAUUUUUGGGUUCUUGUUUUAGACUUCAUUAUUAAAUAAAUCGACAGUUUUAAUUUUCA,1.39 ratio
CCGAAAGGCCAGAUCCCCUCCUCCCUUCUACUGCUUCUACCAACUGGAAGCACAGAAAACUAGAAUUUCAUUUAUUUUGUUUUUAAAAAUAUAUGUUGAUUUCUUGUAACAUCCAAUAGG,0.343 ratio
CAAUUCAAUGGUUGAGGGCUCAGAACUCAAAAAGGUUCGCUCCAACUCCAGGAUUUACCAUAGGUAUUUUUUACUGGAUGCCGACAUGCAGAGCCUGAGGUGGGAACCAUCUAAGAAGGA,0.114 ratio
GGUGGUGGGACACAGGCCCUGCCUCAGUGGCUGCUGGCUGCUACCUCAGGCAGGCUGUUUUAGUUCUGUAUUUUUAUUUUAACAGUGCCCUUCCUGUACAUGAGUGAGAUUUUUGAAAAU,1.72 ratio
UUCAGGCACAACUGACUGGUUCACAGCAUUCCUUACAUAGUUAUCUAUCAAAUGCAAAUGUAGUUAAUUUUCAGGAAACAAGCAGACAGUCAUCUUUAUCCUGUAGCCCAGUUGGAGAGU,1.45 ratio
GACCUCCUGAACUUCUAGCUUUCAAGCUGUGGCUGUUUUAGAUACUGGUUUUAUUUUCGUUACAGUUUUUCCCUGUUUCCCACCUUCUCUCCCCCUCUUCCCAAGGUCUGACUCAUGGAU,1.43 ratio
UCGGUUUAUAGCUGCUCUGAUUUAUUGCUCAUUUGCCUCUUGCAGCUUUACAUAUCUGAAAUCUUGACUUUGGUUUGAAAUGGCAUCCAAACCAGGCUGUUACUAUCAGACUUCCUAGAA,0.332 ratio
AGAGCUCACAAACUGAAAGGAAAACUAUUAAAGAGUUUCUAAUAUUAACUAUUAGAAAGCUAGGAAGAUUAGGACAAUUUUACAAAUGAGCAAUUGAAAAGGAUCUGGGAACUAGACUGA,0.416 ratio

# Study 2
# Target: Fragile X messenger ribonucleoprotein 1, C-terminal low-complexity region (Fmr1, Mus musculus, UniProt P35922)
# Method: RNA Bind-n-Seq
# Form: RNA
# Matrix: in vitro
# Concentration: 200 nM
# Notes: whole 134-nt RNA, ends assumed
# Together with: 150 mM KCl
# Reference: input library
# Direction: higher = stronger binding
# All sequences stand within: GGGAGUUCUACAGUCCGACGAUC … UGGAAUUCUCGGGUGUCAAGG
Strand,log2 enrichment
UGGGAGGUGGAUUUUGUUUAUUUUUUUAGCUCAUUUCCAGGGGUGGGUAUUUUUUUUUAAUAUGUGUCAUGAAUAAAGUUGUUUUUGAAA,0.397
AGUCCUGUGCUACACAUCGUAUGUACCGAAUCGGGCCCCGGGCCCCGGGGCCCCGGGAAAGUAUUAUGUUACGCCGUUCGGAUCUGCACU,-0.266
CUGUGCUACACAUCGUAUGUACCGAAUCGGGGCCCCCCCGGGGCCCCCCCGGCCCCCCCGGAAAGUAUUAUGUUACGCCGUUCGGAUCUG,-0.916
UGUGCUACACAUCGUAUGUACCGAAUCGGGAAAAAAAGGGAAAAAAAGGGGAAAAAAAGGGGAAAGUAUUAUGUUACGCCGUUCGGAUCU,-0.205
CAAGUCCUGUGCUACACAUCGUAUGUACCGAAUCGGGAGGGAGGGAAAAAAAGGGAAAGUAUUAUGUUACGCCGUUCGGAUCUGCACUUC,0.403
UAGUAACAGGGGUGAAGAUGCCUUUUGUGAUCCUGAAGAUGAAUGGGAACCCGACAUUACAGAUGCACCAGUUUCUUCACUUUCUAGAAG,-1.68
UGGGAGGUGGAUUUUGUUUAUUUUUUUAGCUCAUUUCCAGGGGUGGGAAUUUUUUUUUAAUAUCUGUCAUGAAUAAAGUUGUUUUUGAAA,0.213
UCCUGUGCUACACAUCGUAUGUACCGAAUCGGGGAAAAAGGGGUUUGGGGUUUUUGGGGAAAGUAUUAUGUUACGCCGUUCGGAUCUGCA,0.688

# Study 3
# SMILES: CC(=O)C1=C(C)N(c2cccc(C(F)(F)F)c2)C(=O)N[C@@H]1c1ccc(C#N)nc1
# Observed: cell-free assay
# Method: competition with immobilised ligand
# Concentration: 1 µM
target,remaining binding
"ERBB3 (Homo sapiens, UniProt P21860)",100%
"CIT (Homo sapiens, UniProt O14578)",77.6%
"MAP4K5 (Homo sapiens, UniProt Q9Y4K4)",100%
"EGFR (Homo sapiens, UniProt P00533, G719S)",100%
"EPHA5 (Homo sapiens, UniProt P54756)",98.2%
"MET (Homo sapiens, UniProt P08581)",98.1%

# Further values, each from its own experiment
SMILES,target,test,setting,scale,measurement,result
Cc1cn(-c2cc(NC(=O)c3ccc(C)c(Nc4nccc(-c5cccnc5)n4)c3)cc(C(F)(F)F)c2)cn1,"Activated CDC42 kinase 1 (TNK2, Homo sapiens, UniProt Q07912)",kinase activity,"0.5 µM, together with: ATP 10 µM",reference: untreated,remaining activity,82.6%

# Repeated from above (study 1):
Strand,bound/input enrichment
UUCAGGCACAACUGACUGGUUCACAGCAUUCCUUACAUAGUUAUCUAUCAAAUGCAAAUGUAGUUAAUUUUCAGGAAACAAGCAGACAGUCAUCUUUAUCCUGUAGCCCAGUUGGAGAGU,1.45 ratio
GACCUCCUGAACUUCUAGCUUUCAAGCUGUGGCUGUUUUAGAUACUGGUUUUAUUUUCGUUACAGUUUUUCCCUGUUUCCCACCUUCUCUCCCCCUCUUCCCAAGGUCUGACUCAUGGAU,1.43 ratio
UCGGUUUAUAGCUGCUCUGAUUUAUUGCUCAUUUGCCUCUUGCAGCUUUACAUAUCUGAAAUCUUGACUUUGGUUUGAAAUGGCAUCCAAACCAGGCUGUUACUAUCAGACUUCCUAGAA,0.332 ratio
